Results pooled from the literature.
Parts stem from different laboratories: compare values within a part only.
Sequence of UniProt Q86UE8 (whole entry, looked up): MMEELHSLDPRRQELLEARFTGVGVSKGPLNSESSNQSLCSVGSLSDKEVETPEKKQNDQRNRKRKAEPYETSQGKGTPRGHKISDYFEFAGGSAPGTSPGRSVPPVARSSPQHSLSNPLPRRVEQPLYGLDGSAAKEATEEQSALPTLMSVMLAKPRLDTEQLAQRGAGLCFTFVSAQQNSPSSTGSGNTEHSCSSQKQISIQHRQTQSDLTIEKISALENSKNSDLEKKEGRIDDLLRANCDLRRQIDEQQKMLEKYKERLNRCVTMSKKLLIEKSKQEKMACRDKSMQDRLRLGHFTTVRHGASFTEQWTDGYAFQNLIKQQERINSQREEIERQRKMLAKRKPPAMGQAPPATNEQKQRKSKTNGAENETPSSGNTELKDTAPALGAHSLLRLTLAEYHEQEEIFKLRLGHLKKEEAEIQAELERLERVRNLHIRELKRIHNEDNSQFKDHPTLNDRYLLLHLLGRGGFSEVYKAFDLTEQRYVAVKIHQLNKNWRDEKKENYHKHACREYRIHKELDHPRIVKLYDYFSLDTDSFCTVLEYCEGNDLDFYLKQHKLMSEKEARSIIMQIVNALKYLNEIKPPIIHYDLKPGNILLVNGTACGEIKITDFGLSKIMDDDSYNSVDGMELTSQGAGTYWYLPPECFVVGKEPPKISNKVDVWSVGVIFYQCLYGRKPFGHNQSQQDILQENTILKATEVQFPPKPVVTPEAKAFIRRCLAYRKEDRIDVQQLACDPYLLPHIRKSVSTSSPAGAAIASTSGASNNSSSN
Sequence of UniProt P08581 (whole entry, looked up): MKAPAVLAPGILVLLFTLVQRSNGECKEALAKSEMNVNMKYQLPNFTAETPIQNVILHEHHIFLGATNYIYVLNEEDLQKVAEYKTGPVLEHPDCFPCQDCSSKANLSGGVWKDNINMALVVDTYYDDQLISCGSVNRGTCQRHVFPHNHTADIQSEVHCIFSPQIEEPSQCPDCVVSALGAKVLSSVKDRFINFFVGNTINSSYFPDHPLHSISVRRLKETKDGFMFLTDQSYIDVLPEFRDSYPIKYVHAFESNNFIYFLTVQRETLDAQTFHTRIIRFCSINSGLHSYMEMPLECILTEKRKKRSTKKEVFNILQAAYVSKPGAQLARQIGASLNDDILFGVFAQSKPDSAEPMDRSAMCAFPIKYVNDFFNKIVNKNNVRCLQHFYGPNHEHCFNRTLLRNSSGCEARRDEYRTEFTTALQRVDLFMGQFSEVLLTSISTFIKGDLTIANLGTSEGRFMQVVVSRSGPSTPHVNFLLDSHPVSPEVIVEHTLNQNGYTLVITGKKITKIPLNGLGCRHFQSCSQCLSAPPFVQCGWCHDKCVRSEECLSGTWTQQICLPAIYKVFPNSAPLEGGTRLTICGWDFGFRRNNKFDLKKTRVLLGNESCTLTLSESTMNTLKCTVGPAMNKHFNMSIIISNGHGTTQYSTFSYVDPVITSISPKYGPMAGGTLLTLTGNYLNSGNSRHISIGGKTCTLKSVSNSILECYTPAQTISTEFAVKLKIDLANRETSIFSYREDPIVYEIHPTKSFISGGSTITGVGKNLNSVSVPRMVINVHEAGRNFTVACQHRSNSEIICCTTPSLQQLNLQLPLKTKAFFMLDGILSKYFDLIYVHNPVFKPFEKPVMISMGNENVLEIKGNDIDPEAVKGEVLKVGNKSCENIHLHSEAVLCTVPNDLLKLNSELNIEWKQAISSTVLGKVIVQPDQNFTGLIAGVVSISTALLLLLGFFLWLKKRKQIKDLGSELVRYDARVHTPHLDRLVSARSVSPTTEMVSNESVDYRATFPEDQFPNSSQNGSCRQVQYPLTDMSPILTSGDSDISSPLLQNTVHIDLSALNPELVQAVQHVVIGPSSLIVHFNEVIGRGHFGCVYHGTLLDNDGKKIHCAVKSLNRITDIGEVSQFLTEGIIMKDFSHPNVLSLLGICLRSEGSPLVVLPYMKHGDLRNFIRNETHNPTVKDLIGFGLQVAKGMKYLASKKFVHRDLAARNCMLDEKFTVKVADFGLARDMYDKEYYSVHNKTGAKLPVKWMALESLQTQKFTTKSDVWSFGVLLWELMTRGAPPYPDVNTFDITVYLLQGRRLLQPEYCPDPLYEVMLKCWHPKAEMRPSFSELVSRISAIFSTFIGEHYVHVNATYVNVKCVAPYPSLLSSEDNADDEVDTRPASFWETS
Sequence of UniProt Q13153 (whole entry, looked up): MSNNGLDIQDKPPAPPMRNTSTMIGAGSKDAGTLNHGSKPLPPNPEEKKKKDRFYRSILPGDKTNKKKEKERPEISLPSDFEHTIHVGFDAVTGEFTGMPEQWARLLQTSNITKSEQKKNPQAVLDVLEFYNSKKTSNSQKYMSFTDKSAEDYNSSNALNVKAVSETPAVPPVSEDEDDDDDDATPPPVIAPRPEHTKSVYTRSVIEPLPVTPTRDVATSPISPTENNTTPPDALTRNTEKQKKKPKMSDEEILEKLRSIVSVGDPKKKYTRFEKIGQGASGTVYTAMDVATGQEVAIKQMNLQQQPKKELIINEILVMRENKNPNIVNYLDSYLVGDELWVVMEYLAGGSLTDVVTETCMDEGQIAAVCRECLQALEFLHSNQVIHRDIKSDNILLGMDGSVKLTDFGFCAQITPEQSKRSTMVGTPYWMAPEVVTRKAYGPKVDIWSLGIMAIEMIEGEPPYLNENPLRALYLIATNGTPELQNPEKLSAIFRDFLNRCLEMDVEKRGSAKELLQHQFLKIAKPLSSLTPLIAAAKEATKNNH
Sequence of UniProt Q96L34 (whole entry, looked up): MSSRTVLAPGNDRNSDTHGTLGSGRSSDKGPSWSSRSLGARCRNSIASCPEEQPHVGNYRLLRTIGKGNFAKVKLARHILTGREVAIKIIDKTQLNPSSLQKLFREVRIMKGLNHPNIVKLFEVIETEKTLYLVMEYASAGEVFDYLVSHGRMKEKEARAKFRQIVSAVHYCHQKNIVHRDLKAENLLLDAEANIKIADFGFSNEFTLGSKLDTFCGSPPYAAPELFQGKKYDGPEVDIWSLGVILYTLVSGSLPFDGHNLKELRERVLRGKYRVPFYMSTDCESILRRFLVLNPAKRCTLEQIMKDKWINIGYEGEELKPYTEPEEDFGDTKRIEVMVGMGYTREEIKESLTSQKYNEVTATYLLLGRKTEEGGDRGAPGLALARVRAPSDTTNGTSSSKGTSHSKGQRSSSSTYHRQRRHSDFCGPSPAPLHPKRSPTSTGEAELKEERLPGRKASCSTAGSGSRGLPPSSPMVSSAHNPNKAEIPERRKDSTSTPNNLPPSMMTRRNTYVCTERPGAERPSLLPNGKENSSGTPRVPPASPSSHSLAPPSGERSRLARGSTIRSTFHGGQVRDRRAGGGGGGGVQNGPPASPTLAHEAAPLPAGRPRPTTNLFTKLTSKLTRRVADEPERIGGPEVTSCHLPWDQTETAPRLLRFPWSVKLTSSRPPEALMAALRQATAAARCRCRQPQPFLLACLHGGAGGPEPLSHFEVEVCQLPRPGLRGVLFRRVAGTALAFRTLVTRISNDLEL
Sequence of UniProt P51956 (whole entry, looked up): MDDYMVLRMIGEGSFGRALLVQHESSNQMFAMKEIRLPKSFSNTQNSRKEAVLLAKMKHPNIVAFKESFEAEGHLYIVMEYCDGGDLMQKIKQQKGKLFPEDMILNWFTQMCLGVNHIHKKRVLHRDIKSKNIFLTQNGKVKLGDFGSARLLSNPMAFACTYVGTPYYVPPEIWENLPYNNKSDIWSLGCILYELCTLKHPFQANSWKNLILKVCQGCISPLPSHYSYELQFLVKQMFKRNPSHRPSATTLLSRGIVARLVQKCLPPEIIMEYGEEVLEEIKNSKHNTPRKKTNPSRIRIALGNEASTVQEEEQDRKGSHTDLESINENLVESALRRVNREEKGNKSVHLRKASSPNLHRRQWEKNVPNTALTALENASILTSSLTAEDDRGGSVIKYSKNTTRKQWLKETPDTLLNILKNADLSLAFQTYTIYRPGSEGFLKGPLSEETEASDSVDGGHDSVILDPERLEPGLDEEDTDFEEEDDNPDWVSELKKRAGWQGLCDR
Sequence of UniProt P42336 (whole entry, unmodified, looked up): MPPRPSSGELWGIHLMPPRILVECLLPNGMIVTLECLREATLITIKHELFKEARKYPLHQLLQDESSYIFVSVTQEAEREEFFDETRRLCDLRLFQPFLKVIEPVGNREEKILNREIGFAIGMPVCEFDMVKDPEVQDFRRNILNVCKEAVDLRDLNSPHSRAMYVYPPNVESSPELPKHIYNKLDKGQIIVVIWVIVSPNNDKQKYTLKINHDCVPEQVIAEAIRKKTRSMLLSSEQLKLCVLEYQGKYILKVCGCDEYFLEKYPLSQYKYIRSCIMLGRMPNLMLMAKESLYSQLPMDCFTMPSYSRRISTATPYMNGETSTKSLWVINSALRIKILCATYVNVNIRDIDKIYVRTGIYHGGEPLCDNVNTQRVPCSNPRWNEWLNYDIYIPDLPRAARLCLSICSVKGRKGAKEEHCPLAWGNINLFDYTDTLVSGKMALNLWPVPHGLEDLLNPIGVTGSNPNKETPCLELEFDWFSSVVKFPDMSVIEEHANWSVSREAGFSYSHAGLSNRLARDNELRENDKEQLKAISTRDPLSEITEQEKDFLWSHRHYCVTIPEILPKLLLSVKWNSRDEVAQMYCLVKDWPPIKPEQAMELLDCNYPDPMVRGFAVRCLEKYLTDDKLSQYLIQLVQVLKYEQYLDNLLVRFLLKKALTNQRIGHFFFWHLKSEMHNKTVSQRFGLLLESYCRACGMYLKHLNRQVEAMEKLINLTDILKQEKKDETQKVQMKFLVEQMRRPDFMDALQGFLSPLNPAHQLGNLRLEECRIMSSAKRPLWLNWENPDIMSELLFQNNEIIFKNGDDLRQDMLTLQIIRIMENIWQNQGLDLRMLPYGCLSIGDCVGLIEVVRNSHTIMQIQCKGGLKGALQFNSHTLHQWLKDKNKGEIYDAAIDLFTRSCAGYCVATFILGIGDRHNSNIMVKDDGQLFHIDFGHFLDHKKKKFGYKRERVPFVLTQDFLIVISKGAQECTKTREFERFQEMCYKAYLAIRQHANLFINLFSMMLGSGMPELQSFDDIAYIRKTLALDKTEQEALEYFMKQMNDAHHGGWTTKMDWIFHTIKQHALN

Series 1
Organism: Sarcocystis neurona
Read-out: parasite growth
Concentration: 10 µM
Time: 96 h
Notes: second screen
Relative to: untreated
For `Cc1cccc(Nc2ccccc2C(=O)O)c1C`, “log2 fold change” read 0.19.
Under “log2 fold change”, `CN(C)CCOC(c1ccc(Cl)cc1)c1ccccn1` (centres unmarked) is recorded as 0.26.
`Cc1occc(=O)c1O`: “log2 fold change” 0.3.
`CC(C)C[C@H](NC(=O)[C@@H](O)[C@H](N)Cc1ccccc1)C(=O)O`: “log2 fold change” 0.52.
`CO/N=C(\C(=O)N[C@@H]1C(=O)N2C(C(=O)O)=C(COC(C)=O)CS[C@H]12)c1csc(N)n1`: “log2 fold change” 0.16.

Series 2
Species: human
Medium: microsomes or S9
Concentration: 2 µM
Time: 0.5 h
The remaining compound of `COCCN(Cc1ccc(C)c(Br)c1)S(=O)(=O)c1ccc2[nH]c(=O)ccc2c1` is reported as 2.3%.
`CC1CCc2c(sc(NC(=O)C3CCCN(S(C)(=O)=O)C3)c2C(N)=O)C1` (centres unmarked) has a remaining compound of over 100%.
`CC1Cc2ccccc2N1C(=O)c1ccc(=O)n(CCC(=O)N2CCN(c3ccccn3)CC2)n1` (centres unmarked) has a remaining compound of 2.65%.

Series 3
Compound: O=C(O)[C@@H]1[C@@H](Cn2nnc3ccccc3c2=O)CC[C@H]1C(=O)c1ccc(OCCC2CCOCC2)cc1
Read-out: cell-free assay
Method: competition with immobilised ligand
Concentration: 1 µM
It gave 100% for remaining binding (Ribosomal protein S6 kinase alpha-1, N-terminal kinase domain (RPS6KA1, Homo sapiens, UniProt Q15418)).
The remaining binding was 93% (Serine/threonine-protein kinase tousled-like 2 (TLK2, Homo sapiens, UniProt Q86UE8)).
Serine/threonine-protein kinase 25 (STK25, Homo sapiens, UniProt O00506) — remaining binding: 87%.
The remaining binding was 62% (Phosphatidylinositol 4,5-bisphosphate 3-kinase catalytic subunit alpha isoform (PIK3CA, Homo sapiens, UniProt P42336, E542K)).
It gave 95% for remaining binding (Serine/threonine-protein kinase PAK 1 (PAK1, Homo sapiens, UniProt Q13153)).
It gave 100% for remaining binding (Serine/threonine-protein kinase Nek1 (NEK1, Homo sapiens, UniProt Q96PY6)).

Series 4
Cell line: HuT78
Concentration: 2 µM
Time: 48 h
Relative to: untreated
`CCCS(=O)(=O)Nc1ccc(F)c(C(=O)c2c[nH]c3ncc(-c4ccc(Cl)cc4)cc23)c1F` gave a viability of 124%.
`Cc1c(NC(=O)OC[C@@H]2COCCN2)cn2ncnc(Nc3ccc4c(cnn4Cc4cccc(F)c4)c3)c12` gave a viability of 155%.
The viability of `O=C(c1cccc(Cl)c1F)N1CCN(Cc2cccc(Nc3nccs3)n2)CC1` is reported as 62.9%.
The viability of `COc1cccc(-n2c(=O)[nH]c3cc(Cl)n(-c4ccc(-c5cccc(OC)c5O)cc4)c3c2=O)c1` is reported as 116%.
`O=C1Nc2ccc(I)cc2/C1=C/c1cc(Br)c(O)c(Br)c1` has a viability of 105%.
`C=CC(=O)Nc1cccc(Nc2nc(Nc3ccc(Oc4ccnc(C(=O)NC)c4)cc3)ncc2F)c1` has a viability of 92.3%.

Series 5
Structure (SMILES): NCCNc1ncc(C(N)=O)c(Nc2cccc(C(F)(F)F)c2)n1
Read-out: enzyme activity
Mode: inhibitor
Concentration: 0.5 µM
Relative to: control
For RAC-beta serine/threonine-protein kinase (AKT2, Homo sapiens, UniProt P31751): remaining activity read 90.9%.
For Mitogen-activated protein kinase 11 (MAPK11, Homo sapiens, UniProt Q15759): remaining activity read 100%.
MAP/microtubule affinity-regulating kinase 4 (MARK4, Homo sapiens, UniProt Q96L34) — remaining activity: 87.5%.
Hepatocyte growth factor receptor (MET, Homo sapiens, UniProt P08581) — remaining activity: 106%.
The remaining activity was 110% (Vascular endothelial growth factor receptor 2 (KDR, Homo sapiens, UniProt P35968)).
It gave 88.3% for remaining activity (Serine/threonine-protein kinase tousled-like 2 (TLK2, Homo sapiens, UniProt Q86UE8)).
The remaining activity was 107% (Serine/threonine-protein kinase MRCK beta (CDC42BPB, Homo sapiens, UniProt Q9Y5S2)).
Rho-associated protein kinase 1 (ROCK1, Homo sapiens, UniProt Q13464) — remaining activity: 87.8%.
For Serine/threonine-protein kinase DCLK2 (DCLK2, Homo sapiens, UniProt Q8N568): remaining activity read 92.8%.
It gave 90.3% for remaining activity (Myosin-IIIb (MYO3B, Homo sapiens, UniProt Q8WXR4)).
For cGMP-dependent protein kinase 2 (PRKG2, Homo sapiens, UniProt Q13237): remaining activity read 89.8%.
Serine/threonine-protein kinase PAK 3 (PAK3, Homo sapiens, UniProt O75914) — remaining activity: 93.7%.
For Dual specificity protein kinase CLK3 (CLK3, Homo sapiens, UniProt P49761): remaining activity read 107%.
The remaining activity was 93.3% (Serine/threonine-protein kinase Nek3 (NEK3, Homo sapiens, UniProt P51956)).
Discoidin domain-containing receptor 2 (DDR2, Homo sapiens, UniProt Q16832) — remaining activity: 96.7%.
For Serine/threonine-protein kinase PLK3 (PLK3, Homo sapiens, UniProt Q9H4B4): remaining activity read 98.3%.
G protein-coupled receptor kinase 4 (GRK4, Homo sapiens, UniProt P32298) — remaining activity: 85.9%.
Tyrosine-protein kinase TXK (TXK, Homo sapiens, UniProt P42681) — remaining activity: 85.2%.

For quick reference, copied from above (series 3):
It gave 100% for remaining binding (Serine/threonine-protein kinase Nek1 (NEK1, Homo sapiens, UniProt Q96PY6)).
It gave 100% for remaining binding (Ribosomal protein S6 kinase alpha-1, N-terminal kinase domain (RPS6KA1, Homo sapiens, UniProt Q15418)).
It gave 95% for remaining binding (Serine/threonine-protein kinase PAK 1 (PAK1, Homo sapiens, UniProt Q13153)).
